# Measured values gathered from unrelated publications.
# Numbered parts are unrelated; each lists some results of a single study.

# Block 1
# Target: PABPC1L2, full length, GST fusion (mouse, UniProt A0ABA7IW68)
# Method: RNAcompete
# Molecule type: RNA
# Medium: in vitro
# Concentration: 20 nM
# Notes: 7-mer, probes averaged, single round
# Baseline: mean of 7-mers
# Reading: higher = stronger binding
# Target sequence (chain): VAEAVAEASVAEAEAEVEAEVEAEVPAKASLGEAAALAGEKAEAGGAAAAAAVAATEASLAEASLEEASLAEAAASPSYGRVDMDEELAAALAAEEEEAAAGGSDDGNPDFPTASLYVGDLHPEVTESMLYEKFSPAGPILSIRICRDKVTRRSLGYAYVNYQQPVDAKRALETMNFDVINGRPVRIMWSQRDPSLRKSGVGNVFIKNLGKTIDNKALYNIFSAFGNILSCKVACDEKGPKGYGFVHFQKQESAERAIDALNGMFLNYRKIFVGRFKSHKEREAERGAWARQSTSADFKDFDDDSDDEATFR
Sequence,7-mer Z-score
GUGACUA,0.0116
UAGGUCG,-0.00652
GCCGUUC,-0.396
GGACACA,0.265
GUCCACG,-0.215
AUACUUA,-0.121
AUCACCC,-0.313
GUCUCAA,0.0478
GUGAGUA,-0.244
AUCGUCG,-0.356
UGGGCAA,0.514
UUCUUAG,-0.293
ACGGCAU,-0.0156
AGUGUAU,-0.0718
UUGAUCC,-0.228
ACCGGGA,0.0859

# Block 2
# Target: RING finger protein unkempt homolog, zinc fingers 1-6, GST-SBP tag (UNK, Homo sapiens, UniProt Q9C0B0, residues 30-357)
# Method: RNA Bind-n-Seq
# Molecule type: RNA
# Medium: in vitro
# Concentration: not given
# Notes: RNA with constant flanks, ends assumed
# Baseline: input RNA pool
# Reading: higher = stronger binding
# All sequences stand within: GGGAGUUCUACAGUCCGACGAUC … CAACAGAGGAUUGAGCAUCA
# Construct (chain): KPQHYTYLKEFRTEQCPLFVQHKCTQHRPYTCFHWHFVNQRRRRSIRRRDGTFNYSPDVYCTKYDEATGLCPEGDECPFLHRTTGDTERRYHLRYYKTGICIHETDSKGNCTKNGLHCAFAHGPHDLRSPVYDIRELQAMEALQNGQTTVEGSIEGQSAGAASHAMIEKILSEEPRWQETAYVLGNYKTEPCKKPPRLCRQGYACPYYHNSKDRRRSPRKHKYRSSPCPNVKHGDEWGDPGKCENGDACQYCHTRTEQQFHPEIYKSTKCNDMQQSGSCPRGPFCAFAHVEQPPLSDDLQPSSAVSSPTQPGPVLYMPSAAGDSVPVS
Sequence,bound/input enrichment [ratio]
CUGCCCUAGAAUUGUUAUGUUGGGCAUCACAGUCAUGAACUUUUGUUUUUCUCCCUUUUUCCGUUUUUUCAAAGAUGGGGGGAAGGGAAAUAUGAGCCUUUGUUGCUUUCAAAACGAGAA,0.227
UUAAGGGAAAUUUUUGAGGCAAAAGGCAAAUGUUUUGGUUCAAACCUAUGAGCAAAGUCAUUCCGAGAAUUGAAGAUAGUAUUAAAACCUUGAGACUCUUGCAAUAAAAAUAUCAGACCA,0.322
ACAGGAACAGGGCAGACGUUAGCGUGAGUGAUCACUCUCAAUCCCGGGGACCUGGUGGCCUCCGUCUUUCAGGUGGAACGGUGUGCGACAUGGGAAAGAAAACCAAGCGGACAGCUGACA,0.404
UUACACAUUUGGUGAGCAGGGCAGCAUUUCCUUCUCCCACUGCUGCUGAGAUGGCAGAAAUCCGUCGAAUUCAGUACGAAAUGGAAUAUACUGAAGGCAUUAGUCAGCGAAUGAGGGUCC,0.293
AAUUGAACAAAAAUGUUUCCACUGGCUUUUGCCUGUAAGAAAAAAAAUGUACCCGAGCACACCGAGCUUUUUAAUAGCACUAACCAAUGCCUUUUUAGAUGUAUUUUUGAUGUAUAUAUC,48.1
CCUAAGCAUCAGGCAGAAGUCCCAUUGGACCUGAAUGAGAGGGUUCCUUCCUGGCAGCUAUUCCGCUUUCCCAUGGAGGACAGUUAUGGGACCAGCUCAGCUCCUCUUGGCUUGAUAGCU,0.147
GGAGUCGGGAGGCCUGAGUGUUCCUUCCAGCAUGUCGGAGGGGGAGUCCCAGACAGUACUCCGCAGUGGCUCAGACCCAAAGGUAGAAUCCUCAUCUUCAGCUCCUGGCCUGACAUCAGU,0.095
CAGAACCUGCCUUCAGGAUCGUCACGGGUUGGAGCCAUUAAACUUACCUACAUUUCAAAGGUCCGCGAUGCAACUAAGUUAAGGCCAAAGGCAGAGUUUUGUUUUGUUAUGAAUGCAGGA,0.163
UUCUACUUUGGCUCCCUAAAGCUGAAUUCAAUUCACAUCUCUCAGAGGUUCACCGCCGACAGCUUUGGAAACUACGCUUCCUGUGGACAAAUUGACUUCUCCUGAGGUGGAUCUUGGAAA,0.079
GACAUUGCAGAGCAUGCUUUGAAAAAUUCUUUAGAAACAGAUAUUCCUACUGUGAAUAUUUCCGCUGAUGAAGAAUUCCUUCCCUUCCAAGAAAACACGUUUGACCUGGUGGUUAGCAGC,0.358
UUUUCCUCUUCUUCCUCAUCCUCCUCUGGACCUAGGACUUUCUACCCUCGCCAGGGCGCCACCCGCAAAUAUCUGAUUGGAUGGAAAAAGCCAGAAGGAACCAUUAACUCCGUGGGAUUU,0.254

# Block 3
# Target: RNA binding protein fox-1 homolog 2, RRM domain, GST-SBP tag (RBFOX2, Homo sapiens, UniProt O43251-10, residues 100-194)
# Method: RNA Bind-n-Seq
# Molecule type: RNA
# Medium: in vitro
# Concentration: 365 nM
# Notes: natural RNA segment, single round, ends assumed
# Baseline: no-protein control
# Reading: higher = stronger binding
# All sequences stand within: GGGAGUUCUACAGUCCGACGAUC … UGGAAUUCUCGGGUGCCAA
# Target sequence (chain): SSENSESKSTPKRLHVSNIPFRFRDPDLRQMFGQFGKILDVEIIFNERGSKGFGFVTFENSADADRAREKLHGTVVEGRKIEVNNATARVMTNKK
Sequence,RBNS enrichment (R)
UCUGUGCAAACAGUGAUGGAAGGCUGUUGUCUUGGUGUAUCCCUUGCCUCAUAGUCAAUAUAUUUUUUUUUUGGCGAGUCACCAGUGACCCGAGCCCUCCACACCAGCCU,0.19
CGAGGCUGAGUUGCUGUAGCGUCUUGAUUCUCUCCCUGGGUCUGCGUUCCCUCCCCUGGGCCUGACUGAGCCUGCUCAUUGUUUUUCCCUUUAUUACACAGGACAGCCAG,1.82
CCCUCCAUGGGGUGAAGCCACACUCAGUGGGUGUGUCACUUCAGGCUCUGUGGGCUGUGCUCAGUCUGUGGCCCAGCACCCCUGCCCUAGAAAGGGGCAACACAGGGUAC,0.227
AUUGUCCUCACUGCCGUGGACACGUGGACACGUCCCACCUGAACCCCCUGCCGGACCAGGAGGCUCCCACAGACACGGCCUUCCACAGAGCGCGGUACAGCUGGGCCCAG,0.265
CACUUCAGGCCGCAUGGGCAGGAAUGUGGCCUGGGGCUGGCAGGGUUGGCAGGGCUGCCAUCCCAGCUGGCCGGAAAGAGGCUGUGGUUUCGAAUAUGCAGAUGGCCUUG,0.651
GGGGAACACAGCCGCUCCCCUCUGCUCUGCACCCCACUCGUGGGGGAACACAGCCGCUCCCCUCUGCUCUGCACCCCACUCGUGGGGGAACACAGCCGCUCCCCUCUGCU,0.286
UAGUAGGAAUGUUUUAACAGUGUCAUAUGAAAAAGAACAAAAUAAAUAUUUUGAUUUUGUGAUUCUAUGCAAGUCUUUCUGCCCAGAGUGAUAAUGCAAUAAGCUAGUCU,0.51
UUCUGUGGGAACAGUCCUUCUCUGGCUGGCUAGCUAGGCACAGCUACGGCACUGGAAAGAGUAGAGCCCAGGUGAAGCUUAGGAAAUUGGGAGCUAACACCAAGCAACUG,0.417
CAGGUGGAGCUUCAGUUAGUACCCGAGGGAUUCCCCUGGCACAAGCAUUAUAGGAAUUAGUCCACCACUGGCGUGGGUGAGCAGCCAGGUAAUGGGAAUUGAUCAGUGCC,1.21
GCCGUGGUCCUGGGAGCCAGGAAGACUCCGCAGUGGGUGAGAAUGAAAACUUGAGACUCCCAAGUUCUGGGCCAGCCCAUUGCUCUGGGCUGUUUUAAAGCCCAUUUCAC,0.508
AAUUGCCUUUAGUCAACCACUGGAUUUGAAUUUGCAUCAAGUAUUUUAAAUAAUAUUGAAUUUAAAAAAAUGUAUUGCAGUAGUGUGUCAGUACCUUAUUGUUAAAGUGA,1.5
GGGGGACUGCCUGACUCCCAGAGGGACUUGAAACUGAAGCAAGAAGGUUGCAUUCUCCACCAAGGGAGUUAACCUACCUGAACUAAGUAGAAAUGCCAGUCUUCCACUAC,0.308

# Block 4
# Target: Ras GTPase-activating protein-binding protein 1, full length (G3BP1, Homo sapiens, UniProt Q13283)
# UniProt Q13283, sequence (whole entry, looked up): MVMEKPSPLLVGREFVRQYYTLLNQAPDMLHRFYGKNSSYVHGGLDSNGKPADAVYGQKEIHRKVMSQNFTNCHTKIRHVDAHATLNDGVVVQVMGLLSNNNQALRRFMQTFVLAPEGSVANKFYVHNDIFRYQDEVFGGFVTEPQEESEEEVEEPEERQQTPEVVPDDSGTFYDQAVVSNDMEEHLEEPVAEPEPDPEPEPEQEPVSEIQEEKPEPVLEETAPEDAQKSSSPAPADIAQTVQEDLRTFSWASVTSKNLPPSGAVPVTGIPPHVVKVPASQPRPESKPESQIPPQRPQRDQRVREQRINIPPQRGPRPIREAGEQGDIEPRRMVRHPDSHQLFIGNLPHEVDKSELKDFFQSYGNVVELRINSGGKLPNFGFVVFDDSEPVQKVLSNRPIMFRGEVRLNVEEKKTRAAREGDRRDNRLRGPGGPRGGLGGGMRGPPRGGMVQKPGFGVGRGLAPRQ
# Method: RNA Bind-n-Seq
# Molecule type: RNA
# Medium: in vitro
# Concentration: 200 nM
# Notes: whole 134-nt RNA, ends assumed
# Added: 150 mM KCl
# Baseline: input library
# Reading: higher = stronger binding
# All sequences stand within: GGGAGUUCUACAGUCCGACGAUC … UGGAAUUCUCGGGUGUCAAGG
Sequence,log2 enrichment
UCAAGUCCUGUGCUACACAUCGUAUGUACCGAAUCGGGAGGGAGGGAAAAAGGGAAAGUAUUAUGUUACGCCGUUCGGAUCUGCACUUCC,1.01
CAAGUCCUGUGCUACACAUCGUAUGUACCGAAUCGGGUUUGGGGUUUGGUUUGGGGAAAGUAUUAUGUUACGCCGUUCGGAUCUGCACUU,0.108
CCUCAAGUCCUGUGCUACACAUCGUAUGUACCGAAUCGGGGAGGGAGGGAGGAAAGUAUUAUGUUACGCCGUUCGGAUCUGCACUUCCAG,1.42
CACAGACAACACGCACCCACACAGACACAGAGGGAAGGGGUUGGGAUGGGGACAAGGUGCACAGCAGGGCGGGGUAGGACCCCAGCCCCU,1.82
GUCCUGUGCUACACAUCGUAUGUACCGAAUCAAACCCCCCCAAACCCAAAUUUUUAAAAAAGUAUUAUGUUACGCCGUUCGGAUCUGCAC,-0.114
UCCUGUGCUACACAUCGUAUGUACCGAAUCGGGGAAAAAGGGGAGGGGUUUUUUUGGGGAAAGUAUUAUGUUACGCCGUUCGGAUCUGCA,0.621
CAAGUCCUGUGCUACACAUCGUAUGUACCGAAUCGGGCCCGGGCCCGGGGCCCGGAAAGUAUUAUGUUACGCCGUUCGGAUCUGCACUUC,-0.472
UUAUAAUUGAUGAUCAUCCUGAAGUAACAGUAAUUGAAGAUCCCCAGUCAAAUUUGAAUGAUGAUGGUUUUACUGAAGUGGUAUCCAAAA,-0.485
AGUCCUGUGCUACACAUCGUAUGUACCGAAUCGGGAAAAAAAGGGAAAGGGUUUGGGAAAGUAUUAUGUUACGCCGUUCGGAUCUGCACU,-0.318
CUCAAGUCCUGUGCUACACAUCGUAUGUACCGAAUCGGGAGGGUUUGGGUGGGAAAGUAUUAUGUUACGCCGUUCGGAUCUGCACUUCCA,1.23
AAGUCCUGUGCUACACAUCGUAUGUACCGAAUCGGGAAAAAAAGGGAAAGGGUGGGAAAGUAUUAUGUUACGCCGUUCGGAUCUGCACUU,0.364
AAGUCCUGUGCUACACAUCGUAUGUACCGAAUCGGCCCCGGCCCCGGGCCCCGGGGAAAGUAUUAUGUUACGCCGUUCGGAUCUGCACUU,-0.724
CUCAAGUCCUGUGCUACACAUCGUAUGUACCGAAUCGGGGUGGGUGGGUGGGGAAAGUAUUAUGUUACGCCGUUCGGAUCUGCACUUCCA,0.29
AUUAAUUUGUACACAGACAGGGAAACUGGCAAGCUGAAGGGAGAGGCAACGGUCUCUUUUGAUGACCCACCUUCAGCUAAAGCAGCUAUU,-0.92

# Block 5
# Target: Histone acetyltransferase KAT6A, winged helix 1, GST fusion (KAT6A, Homo sapiens, UniProt Q92794, residues 1-85)
# Method: protein binding microarray
# Molecule type: double-stranded DNA, one strand shown
# Medium: in vitro
# Concentration: not given
# Notes: 8-mer, flanks averaged, mean of 2 arrays, mostly near background
# Baseline: not given
# Reading: higher = stronger binding
# Residues (chain): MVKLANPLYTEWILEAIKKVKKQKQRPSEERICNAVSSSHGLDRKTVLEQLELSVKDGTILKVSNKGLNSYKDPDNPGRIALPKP
Sequence,E-score
AACGGCAA,0.191
GGCGTTTA,0.187
CTGCGTAC,0.0876
GAGCTTTA,0.0288
ACCAGCTG,-0.139
TCCCTACA,-0.0642
ACGGTCCA,0.102
ATCTTCAC,-0.116
GCCAAAGC,0.145
AGTACAAA,-0.205
GAGCAAAC,-0.246
ATATCTAC,0.00341
GGCTGGCA,0.0846
GAAGTTAA,-0.0228
CATAGACC,-0.0119
AATCCAAT,-0.135
GCGGCCCC,0.399
CAGCACGG,0.15
ACTACTAT,-0.128
CCCCTCGA,-0.0593
ACGCCTAT,0.0371
GCGCGAGC,0.386
